Measured values pooled from the literature.
Lines come from different studies, so protocols differ. Numbers after ± are the reported error.
Cell line: MDA-MB-231

Compound | effect on | technique | time | notes | IC50
O=C(CN1CCN(c2ccc(Cl)cc2)CC1)Nc1ccc(C(=O)C=Cc2ccccc2)cc1 | cell growth or viability | MTT |  |  | 32.8 µM
COc1ccccc1NC(=O)N[C@H](C(=O)Nc1ccc(C(=O)NO)cc1)c1ccccc1 | cell growth or viability | MTT | 48 h |  | 4.34 µM
O=C(/C=C/c1ccc(Cn2cc(Cn3cnc4ccc(F)cc4c3=O)nn2)cc1)NO | cell growth or viability | MTT | 48 h |  | 4.45 µM
CC(=O)OC[C@@H]1O[C@H](n2cc(Cn3ccc4nc(-c5ccc(F)cc5)cc(=O)n43)nn2)[C@@H](OC(C)=O)[C@H](OC(C)=O)[C@H]1OC(C)=O (stereo in doubt) | cell growth or viability | MTT | 72 h |  | 54.9 µM
CC1CC(C)CN(c2cc(Nc3ccccc3C(=O)O)c3c4c(onc24)-c2ccccc2C3=O)C1 (stereo not drawn) | cell invasion | Boyden chamber | 16 h |  | 30 µM
CC(=O)c1nn(-c2ccccc2Cl)/c(=N/N=C(\C)c2ccc(NC(=O)c3cccnc3)cc2)s1 | cytotoxicity | MTT | 24 h |  | 4.64 ± 0.3 µM
O=c1[nH]nc(O)c2c(-c3ccc(Cl)cc3Cl)c3n(c12)CCn1cccc1-3 | cell growth or viability | MTT | 48 h |  | 81.8 µM
COc1cc(C=CC(=O)c2ccc(NC(=O)CN3CCN(c4ccc(Cl)cc4)CC3)cc2)cc(OC)c1OC | cell growth or viability | MTT |  |  | 19.9 µM
C[C@@H]1O[C@@H](OC(=O)/C=C/c2ccc(O)cc2)[C@H](OC(=O)/C=C/c2ccc(O)c(O)c2)[C@H](O)[C@H]1O (relative stereo) | cell growth or viability | MTT |  |  | 13.3 µM
COc1cc(-c2c3n(c4c(=O)[nH]nc(O)c24)CCn2cccc2-3)cc(OC)c1OC | cell growth or viability | MTT | 48 h |  | 67.4 µM
COC1=C(OC)[C@H](O)[C@H](C/C=C(\C)CC/C=C(\C)CCC=C(C)C)[C@@H](C)C1=O | cell growth or viability | MTS | 72 h |  | 19 µM
O=C(COc1ccccc1C1=Nn2c(nnc2-c2ccccc2)SC1)NCCNC(=O)COc1ccccc1C1=Nn2c(nnc2-c2ccccc2)SC1 | cell growth or viability | MTT |  |  | 23.3 µM
O=C1C[C@@H](c2ccc(O)cc2)Oc2cc(O)cc(O)c21 | cell growth or viability | trypan blue | 72 h |  | > 200 µM
COc1cc2c(cc1O)CC[C@@H]1[C@@H]2CC[C@]2(C)[C@@H](O)CC[C@@H]12 | cell proliferation | MTT | 48 h |  | 1.27 µM
COc1ccc(N2CCN(CC(=O)Nc3ccc(C4=NN(C(C)=O)C(c5ccc(C)cc5)C4)cc3)CC2)cc1 (stereo not drawn) | cell growth or viability | MTT |  |  | 10.4 µM
O=C(/C=C/c1ccc(Cn2cc(Cn3cnc4ccc(I)cc4c3=O)nn2)cc1)NO | cell growth or viability | MTT | 48 h |  | 17.4 µM
Cc1ccc(C=CC(=O)c2ccc(NC(=O)CN3CCN(c4ccc(Cl)cc4)CC3)cc2)cc1 | cell growth or viability | MTT |  |  | 81.6 µM
O=C(COc1ccccc1C1=Nn2cnnc2SC1)NCCCCNC(=O)COc1ccccc1C1=Nn2cnnc2SC1 | cell growth or viability | MTT |  |  | 0.86 µM
C=C1[C@@H]2[C@H]3OC(=O)[C@@H](CN4CCC(O)CC4)[C@@H]3CCC(=C)[C@@H]2C[C@@H]1O | cell growth | MTT | 48 h |  | < 50 µM
COC(=O)c1c(-c2cccc(Br)c2)c2n(c1C(=O)OC)CCn1cccc1-2 | cell growth or viability | MTT | 48 h |  | 71.7 µM
COc1cc(/C=C/C(=O)N2CCC=CC2=O)cc(OC)c1OC | cell growth or viability | MTT |  |  | 3.4 µM
O=C(/C=C/c1ccc(Cn2cc(Cn3cnc4cc(F)ccc4c3=O)nn2)cc1)NO | cell growth or viability | MTT | 48 h |  | 7.17 µM
O=c1[nH]nc(O)c2c(-c3ccc(F)cc3)c3n(c12)CCn1cccc1-3 | cell growth or viability | MTT | 48 h |  | 70.6 µM
CC(=O)c1nn(-c2ccc(Cl)cc2[N+](=O)[O-])/c(=N/N=C(\C)c2ccc(NC(=O)c3cccnc3)cc2)s1 | cytotoxicity | MTT | 24 h |  | 7.9 ± 0.6 µM

Compound | effect on | technique | time | notes | IC50
COC(=O)c1c(-c2ccccc2C)c2n(c1C(=O)OC)CCn1cccc1-2 | cell growth or viability | MTT | 48 h |  | 78.5 µM
CCn1[c](=[Au-2][Cl])n(CC)c2ccccc21 | cell growth or viability | crystal violet | 96 h |  | 8.8 µM
COCCOc1cc2ncnc(Nc3cccc(-c4cn(CCOCCOCCOCCNC(=S)NCc5ccc(S(N)(=O)=O)cc5)nn4)c3)c2cc1OCCOC | cell proliferation | flow cytometry cell count | 72 h | hypoxia 1% O2 | ~190 µM
O=c1c(O)c(-c2cc(O)c(O)c(O)c2)oc2cc(O)cc(O)c12 | cell growth or viability | trypan blue | 72 h |  | > 200 µM
COc1cc(/C=C/C(=O)CC(=O)/C=C/c2ccc(O)c(OC)c2)ccc1O | cell growth or viability | MTT | 48 h |  | 11 µg/mL
O=C(NO)c1ccc(NC(=O)[C@@H](NS(=O)(=O)c2cccc3ccccc23)c2ccccc2)cc1 | cell growth or viability | MTT | 48 h |  | 5.12 µM
COC(=O)c1c(-c2ccccc2F)c2n(c1C(=O)OC)CCn1cccc1-2 | cell growth or viability | MTT | 48 h |  | 76.1 µM
CC/C(=C(\c1ccccc1)c1ccc(OCCN(C)CCCCCC(=O)NCCCOc2ccc3[nH]cc(CCNC(C)=O)c3c2)cc1)c1ccccc1 | cell survival | MTT | day 9 | dosed days 2, 4, 7 | 31.2 µM
COc1ccc(N2CCN(CC(=O)Nc3ccc(C(=O)C=Cc4ccc(Cl)cc4Cl)cc3)CC2)cc1 | cell growth or viability | MTT |  |  | 88.6 µM
COC(=O)c1c(-c2ccc([N+](=O)[O-])cc2)c2n(c1C(=O)OC)CCn1cccc1-2 | cell growth or viability | MTT | 48 h |  | 78.9 µM
Cc1ccc2ncn(Cc3cn(Cc4ccc(C(=O)NO)cc4)nn3)c(=O)c2c1 | cell growth or viability | MTT | 48 h |  | 46.5 µM
O=C(CN1CCN(c2ccc(Cl)cc2)CC1)Nc1ccc(C(=O)C=Cc2ccc(Cl)cc2Cl)cc1 | cell growth or viability | MTT |  |  | 26.4 µM
CC(=O)O[C@H]1C(=O)[C@@]2(C)[C@H]([C@H](OC(=O)c3ccccc3)[C@]3(O)C[C@H](OC(=O)[C@H](O)[C@@H](NC(=O)c4ccccc4)c4ccccc4)C(C)=C1C3(C)C)[C@]1(OC(C)=O)CO[C@@H]1C[C@@H]2O | cell growth or viability | MTT |  |  | 60 µM
COc1ccc(N2CCN(CC(=O)Nc3ccc(C4=NN(C(C)=O)C(c5ccc(Br)cc5)C4)cc3)CC2)cc1 (stereo not drawn) | cell growth or viability | MTT |  |  | 19.3 µM
O=C(NO)c1ccc(NC(=O)[C@@H](NC(=O)c2ccccc2)c2ccccc2)cc1 | cell growth or viability | MTT | 48 h |  | 6.22 µM
Cc1ccccc1-c1c2n(c3c(=O)[nH]nc(O)c13)CCn1cccc1-2 | cell growth or viability | MTT | 48 h |  | 66.2 µM
O=C(COc1ccc(C2=Nn3c(Cc4ccccc4)nnc3SC2)cc1)NCCNC(=O)COc1ccc(C2=Nn3c(Cc4ccccc4)nnc3SC2)cc1 | cell growth or viability | MTT |  |  | 29.2 µM
COc1ccc(N2CCN(CC(=O)Nc3ccc(C(=O)C=Cc4ccco4)cc3)CC2)cc1 | cell growth or viability | MTT |  |  | 8.51 µM
COc1ccc(-c2cc(=O)n3c(ccn3Cc3cn([C@H]4O[C@H](COC(C)=O)[C@@H](OC(C)=O)[C@H](OC(C)=O)[C@@H]4OC(C)=O)nn3)n2)cc1 | cell growth or viability | MTT | 72 h |  | 37.6 µM
Cc1ccc2c(=O)n(Cc3cn(Cc4ccc(/C=C/C(=O)NO)cc4)nn3)cnc2c1 | cell growth or viability | MTT | 48 h |  | 15.3 µM
O=C(COc1ccccc1-c1cnc2ccccc2n1)NCCNC(=O)COc1ccccc1-c1cnc2ccccc2n1 | cell growth or viability | MTT |  |  | 11 µM
CCOC(=O)c1ccc2c(c1)n(CC)c[n+]2CC | cell growth or viability | crystal violet | 96 h |  | > 100 µM
O=C(NO)c1ccc(Cn2cc(Cn3cnc4ccc(Cl)cc4c3=O)nn2)cc1 | cell growth or viability | MTT | 48 h |  | 3.64 µM
Cc1nnc2n1N=C(c1ccc(OCC(=O)NCCCNC(=O)COc3ccc(C4=Nn5c(C)nnc5SC4)cc3)cc1)CS2 | cell growth or viability | MTT |  |  | 3.01 µM
